Measurements pooled from the literature.
Each line is one published result; not all experiments were run side by side. ± marks the error that the study gave.
CYP3A4: Cytochrome P450 3A4 (CYP3A4, Homo sapiens, UniProt P08684)

Compound | target | test | system | setting | measurement | value
Cc1ccc2c(c1)C(=O)[C@]1(O)CCN(c3ccc4nc(C)ccc4c3)C1=N2.Cl | Potassium voltage-gated channel subfamily KQT member 1, with KCNE1 (KCNQ1, Homo sapiens, UniProt P51787) | ion channel panel | cells | concentration not given | inhibition | < 25%
Nc1nnc(-c2cccc(Cl)c2Cl)c(N)n1 | UGT1A, humanized | glucuronidation, Michaelis-Menten kinetics | Tg-UGT1 mice, male, drinking water control group, pooled liver microsomes | 30 min, pH 7.2 | Km | 200 ± 10 µM
CC[C@H](C)[C@H](NC(=O)[C@H](Cc1ccc(O)cc1)NC(=O)[C@@H](NC(=O)[C@@H](N)CCCN=C(N)N)C(C)C)C(=O)N[C@@H](Cc1c[nH]cn1)C(=O)N1CCC[C@H]1C(=O)N[C@@H](Cc1ccccc1)C(=O)O | chymotrypsin | LC-MS |  | 20 µM, 30 min, pH 7.4, 25 °C | proteolytic conversion | 48.3 ± 2.7%
CC[C@H]1[C@@H](O)[C@@H]2[C@H](CC[C@]3(C)[C@@H]([C@H](C)CCNC(=O)NS(=O)(=O)c4ccc(C(C)(C)C)cc4)CC[C@@H]23)[C@@]2(C)CC[C@@H](O)C[C@@H]12 | CYP3A4 |  | human, plasma | dose not given, geometric mean, alone | AUC(0-inf) | 408 ng·h/mL
Cc1oc2ccccc2c1Cc1cc(I)c(OCC(=O)O)c(I)c1 | Voltage-gated inwardly rectifying potassium channel KCNH2 (KCNH2, Homo sapiens, UniProt Q12809) | potassium current, whole-cell patch clamp | HEK293 expressing hERG1 | 10 µM, 10 mM K+ | activation slope factor | 9.5 mV
Cc1cc(Nc2ncnc3ccc(NC4=NC(C)(CO)CO4)cc23)ccc1Oc1ccn2ncnc2c1 (centres unmarked) | CYP3A4 |  | human, plasma | oral, 300 mg tucatinib single dose, day 1, tucatinib alone | Tmax (median) | 2.49 h
COc1ccc(F)cc1C(=O)NCc1ccc(-c2nn([C@@H](C)C(F)(F)F)c(N)c2C(N)=O)cc1 | CYP3A4 |  | human, both sexes, plasma | oral, 200 mg, single dose, with: itraconazole | Cmax | 4100 ng/mL
CC(C)=CCc1c(O)cc(O)c2c1O[C@H](c1ccc(O)cc1)CC2=O | human CYP2E1 |  |  | 10 µM, pH 7.4 | inhibition | < 10%
NCc1cc2c(cc1F)C(=O)N(C1CCC(=O)NC1=O)C2 (centres unmarked) | Amine oxidase [flavin-containing] A (MAOA, Homo sapiens, UniProt P21397) | substrate, LC-MS/MS | recombinant enzyme | 10 µM, 8 h, pH 7.4 | concentration | 7.9 µM
C=CC(=O)N1C[C@H](Nc2ncnc3[nH]ccc23)CC[C@@H]1C | CYP3A | substrate | human, plasma | oral, single dose, with: itraconazole multiple doses | AUC(0-inf) | 308 ng·h/mL
CC(C)=CCc1c(O)cc2c(c1O)C(=O)C[C@@H](c1ccc(O)cc1)O2 | human CYP2E1 |  |  | 10 µM, pH 7.4 | inhibition | < 10%

Excerpt of the above:
Compound | target | test | system | setting | measurement | value
Cc1cc(Nc2ncnc3ccc(NC4=NC(C)(CO)CO4)cc23)ccc1Oc1ccn2ncnc2c1 (centres unmarked) | CYP3A4 |  | human, plasma | oral, 300 mg tucatinib single dose, day 1, tucatinib alone | Tmax (median) | 2.49 h
COc1ccc(F)cc1C(=O)NCc1ccc(-c2nn([C@@H](C)C(F)(F)F)c(N)c2C(N)=O)cc1 | CYP3A4 |  | human, both sexes, plasma | oral, 200 mg, single dose, with: itraconazole | Cmax | 4100 ng/mL
